Measurements of several laboratories.
Lines come from different studies, so protocols differ. “And” joins repeats or separate records; there may be more than shown. ± marks the error that the study gave.
FFAR1: Free fatty acid receptor 1 (FFAR1, Homo sapiens, UniProt O14842)
UniProt O14842, sequence (whole entry, looked up): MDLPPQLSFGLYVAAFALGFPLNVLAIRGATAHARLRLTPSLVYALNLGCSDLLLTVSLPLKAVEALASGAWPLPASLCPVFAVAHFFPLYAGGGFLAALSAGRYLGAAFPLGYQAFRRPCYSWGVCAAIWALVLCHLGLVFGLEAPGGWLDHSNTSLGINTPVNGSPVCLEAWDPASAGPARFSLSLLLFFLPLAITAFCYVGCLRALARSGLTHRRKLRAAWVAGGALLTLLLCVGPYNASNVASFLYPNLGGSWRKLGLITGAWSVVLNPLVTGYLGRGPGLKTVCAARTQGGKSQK
NMBR: Neuromedin-B receptor (NMBR, Homo sapiens, UniProt P28336)
UniProt P28336, sequence (whole entry, looked up): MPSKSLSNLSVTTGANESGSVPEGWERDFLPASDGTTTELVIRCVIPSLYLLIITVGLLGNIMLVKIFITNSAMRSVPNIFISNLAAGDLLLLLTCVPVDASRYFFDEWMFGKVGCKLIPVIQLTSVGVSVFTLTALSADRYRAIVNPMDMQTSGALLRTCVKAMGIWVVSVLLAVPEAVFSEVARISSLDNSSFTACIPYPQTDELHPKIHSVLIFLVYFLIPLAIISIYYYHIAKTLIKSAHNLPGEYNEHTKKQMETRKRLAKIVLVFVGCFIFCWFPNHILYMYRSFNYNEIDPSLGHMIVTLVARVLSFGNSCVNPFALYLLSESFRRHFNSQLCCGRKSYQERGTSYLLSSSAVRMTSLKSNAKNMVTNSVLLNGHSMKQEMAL
SCTR: Secretin receptor (SCTR, Homo sapiens, UniProt P47872)
UniProt P47872, sequence (whole entry, looked up): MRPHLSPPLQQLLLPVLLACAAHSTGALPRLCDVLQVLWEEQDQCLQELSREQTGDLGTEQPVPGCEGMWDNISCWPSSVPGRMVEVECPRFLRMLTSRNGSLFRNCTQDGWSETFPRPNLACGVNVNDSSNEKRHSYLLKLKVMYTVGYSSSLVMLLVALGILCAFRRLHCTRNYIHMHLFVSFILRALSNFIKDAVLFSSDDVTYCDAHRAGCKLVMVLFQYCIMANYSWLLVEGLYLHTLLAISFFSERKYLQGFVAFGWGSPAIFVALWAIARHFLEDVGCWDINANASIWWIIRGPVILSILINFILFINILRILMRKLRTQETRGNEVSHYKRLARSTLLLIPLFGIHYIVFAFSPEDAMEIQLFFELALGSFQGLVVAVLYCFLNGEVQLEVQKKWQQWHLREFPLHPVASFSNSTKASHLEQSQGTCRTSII
UniProt Q8NGN2, sequence (whole entry, looked up): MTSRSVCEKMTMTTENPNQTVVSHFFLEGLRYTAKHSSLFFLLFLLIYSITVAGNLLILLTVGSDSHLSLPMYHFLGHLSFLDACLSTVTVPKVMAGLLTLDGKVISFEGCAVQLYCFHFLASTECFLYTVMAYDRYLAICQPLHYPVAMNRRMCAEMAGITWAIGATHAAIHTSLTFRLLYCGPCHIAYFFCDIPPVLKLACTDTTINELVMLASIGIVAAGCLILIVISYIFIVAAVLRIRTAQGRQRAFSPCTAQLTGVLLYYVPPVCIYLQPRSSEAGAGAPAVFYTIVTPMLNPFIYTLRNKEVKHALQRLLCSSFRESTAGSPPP
UniProt P29994, sequence (whole entry, looked up): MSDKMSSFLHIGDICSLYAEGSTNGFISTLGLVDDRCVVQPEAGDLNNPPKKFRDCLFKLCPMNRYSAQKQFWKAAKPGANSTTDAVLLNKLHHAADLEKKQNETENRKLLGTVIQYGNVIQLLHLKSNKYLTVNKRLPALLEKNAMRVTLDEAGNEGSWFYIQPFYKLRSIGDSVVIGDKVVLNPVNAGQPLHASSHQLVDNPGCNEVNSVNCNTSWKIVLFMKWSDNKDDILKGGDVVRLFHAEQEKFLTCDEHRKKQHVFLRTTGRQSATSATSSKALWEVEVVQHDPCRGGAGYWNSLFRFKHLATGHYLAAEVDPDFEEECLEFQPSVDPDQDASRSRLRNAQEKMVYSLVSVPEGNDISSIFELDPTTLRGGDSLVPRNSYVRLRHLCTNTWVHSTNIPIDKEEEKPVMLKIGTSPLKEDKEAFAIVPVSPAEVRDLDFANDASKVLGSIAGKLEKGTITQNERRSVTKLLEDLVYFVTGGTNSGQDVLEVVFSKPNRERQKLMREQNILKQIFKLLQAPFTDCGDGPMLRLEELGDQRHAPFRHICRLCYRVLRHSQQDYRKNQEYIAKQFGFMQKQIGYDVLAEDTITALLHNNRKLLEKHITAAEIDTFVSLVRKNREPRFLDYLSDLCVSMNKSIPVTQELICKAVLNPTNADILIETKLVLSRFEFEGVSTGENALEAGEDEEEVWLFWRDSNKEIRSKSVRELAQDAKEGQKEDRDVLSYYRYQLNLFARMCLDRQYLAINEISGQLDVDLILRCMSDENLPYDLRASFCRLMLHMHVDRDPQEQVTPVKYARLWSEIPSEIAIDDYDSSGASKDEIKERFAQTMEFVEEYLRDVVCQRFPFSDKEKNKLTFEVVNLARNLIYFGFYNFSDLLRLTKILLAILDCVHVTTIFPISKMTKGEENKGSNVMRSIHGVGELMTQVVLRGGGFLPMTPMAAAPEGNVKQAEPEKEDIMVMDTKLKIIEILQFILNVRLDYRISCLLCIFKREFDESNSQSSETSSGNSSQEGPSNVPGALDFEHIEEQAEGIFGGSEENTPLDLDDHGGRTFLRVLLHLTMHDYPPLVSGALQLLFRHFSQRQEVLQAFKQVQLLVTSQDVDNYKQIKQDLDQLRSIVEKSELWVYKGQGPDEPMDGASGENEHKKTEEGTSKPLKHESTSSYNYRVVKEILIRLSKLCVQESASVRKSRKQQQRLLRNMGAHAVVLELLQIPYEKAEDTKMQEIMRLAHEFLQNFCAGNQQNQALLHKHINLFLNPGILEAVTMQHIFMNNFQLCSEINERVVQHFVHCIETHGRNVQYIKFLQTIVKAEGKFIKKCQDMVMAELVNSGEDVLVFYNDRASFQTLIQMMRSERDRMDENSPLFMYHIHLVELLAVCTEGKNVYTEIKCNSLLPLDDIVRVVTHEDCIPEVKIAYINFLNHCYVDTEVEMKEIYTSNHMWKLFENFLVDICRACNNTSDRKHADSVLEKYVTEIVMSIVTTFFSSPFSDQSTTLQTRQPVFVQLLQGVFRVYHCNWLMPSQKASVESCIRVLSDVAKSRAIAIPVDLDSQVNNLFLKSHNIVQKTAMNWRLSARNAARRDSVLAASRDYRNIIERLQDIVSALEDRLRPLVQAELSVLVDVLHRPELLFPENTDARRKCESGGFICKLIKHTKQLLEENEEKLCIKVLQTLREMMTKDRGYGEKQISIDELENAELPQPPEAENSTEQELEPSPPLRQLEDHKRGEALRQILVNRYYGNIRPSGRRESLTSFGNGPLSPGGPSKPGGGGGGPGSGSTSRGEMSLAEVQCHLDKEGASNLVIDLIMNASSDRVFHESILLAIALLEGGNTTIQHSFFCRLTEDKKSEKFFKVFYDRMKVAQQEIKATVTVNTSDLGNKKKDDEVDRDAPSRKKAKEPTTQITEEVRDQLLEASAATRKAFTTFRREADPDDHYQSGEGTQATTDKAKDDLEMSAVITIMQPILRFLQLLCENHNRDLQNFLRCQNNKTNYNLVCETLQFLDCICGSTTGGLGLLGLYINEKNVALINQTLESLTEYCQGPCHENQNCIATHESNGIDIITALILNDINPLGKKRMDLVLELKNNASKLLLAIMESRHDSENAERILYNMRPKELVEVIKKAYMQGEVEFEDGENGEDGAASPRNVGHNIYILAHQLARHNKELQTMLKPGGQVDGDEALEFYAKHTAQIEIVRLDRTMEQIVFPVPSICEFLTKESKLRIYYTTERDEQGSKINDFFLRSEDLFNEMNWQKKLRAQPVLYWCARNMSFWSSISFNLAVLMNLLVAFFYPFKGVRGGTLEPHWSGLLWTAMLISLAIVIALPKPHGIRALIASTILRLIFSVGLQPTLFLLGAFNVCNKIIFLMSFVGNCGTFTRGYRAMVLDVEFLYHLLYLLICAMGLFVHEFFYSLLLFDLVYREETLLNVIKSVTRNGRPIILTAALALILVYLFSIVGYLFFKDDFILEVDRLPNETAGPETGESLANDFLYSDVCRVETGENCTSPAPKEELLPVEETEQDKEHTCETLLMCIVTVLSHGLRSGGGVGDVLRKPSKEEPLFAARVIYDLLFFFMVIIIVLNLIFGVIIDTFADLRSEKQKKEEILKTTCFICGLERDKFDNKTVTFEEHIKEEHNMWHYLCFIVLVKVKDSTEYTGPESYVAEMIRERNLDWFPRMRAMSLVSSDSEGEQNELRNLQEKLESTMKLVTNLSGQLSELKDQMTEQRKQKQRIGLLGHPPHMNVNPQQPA
UniProt Q9QYW1, sequence (whole entry, looked up): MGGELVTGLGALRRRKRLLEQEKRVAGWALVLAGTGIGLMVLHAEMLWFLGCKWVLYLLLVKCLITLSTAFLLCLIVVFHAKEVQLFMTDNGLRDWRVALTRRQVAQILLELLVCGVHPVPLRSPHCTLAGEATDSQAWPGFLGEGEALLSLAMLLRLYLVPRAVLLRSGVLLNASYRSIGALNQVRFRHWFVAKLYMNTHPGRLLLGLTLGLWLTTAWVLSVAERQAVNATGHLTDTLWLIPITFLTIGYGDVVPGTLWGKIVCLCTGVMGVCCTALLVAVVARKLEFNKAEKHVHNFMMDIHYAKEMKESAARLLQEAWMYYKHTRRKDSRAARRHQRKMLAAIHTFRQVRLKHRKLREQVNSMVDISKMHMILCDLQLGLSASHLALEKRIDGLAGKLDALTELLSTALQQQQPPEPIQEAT
UniProt P21917, sequence (whole entry, looked up): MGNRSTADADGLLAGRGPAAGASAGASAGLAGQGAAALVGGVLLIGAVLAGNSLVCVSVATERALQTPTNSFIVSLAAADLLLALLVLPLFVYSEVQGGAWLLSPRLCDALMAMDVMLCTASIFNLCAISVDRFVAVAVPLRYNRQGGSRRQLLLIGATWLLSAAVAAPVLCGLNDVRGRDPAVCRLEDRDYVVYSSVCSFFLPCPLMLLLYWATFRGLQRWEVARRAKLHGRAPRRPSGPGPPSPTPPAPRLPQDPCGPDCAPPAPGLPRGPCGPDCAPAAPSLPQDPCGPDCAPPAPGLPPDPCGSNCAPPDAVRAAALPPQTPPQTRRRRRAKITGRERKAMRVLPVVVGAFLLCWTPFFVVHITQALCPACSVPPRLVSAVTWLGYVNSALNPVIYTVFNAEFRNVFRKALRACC

For `O=C1NC(=O)C(C2CCOc3cc(Oc4ccc(C(F)(F)F)cc4Cl)ccc32)S1` (centres unmarked), the EC50 was 12.6 nM (FFAR1; IP turnover, agonist; COS-7 transient).
The EC50 of `CC(C=O)Cc1ccc(C(C)(C)C)cc1` (centres unmarked) is reported as 129000 nM (Olfactory receptor 10S1 (OR10S1, Homo sapiens, UniProt Q8NGN2); GFP reporter gene, agonist; yeast expressing OR10S1; 4 h, 1% DMSO).
`CSCC[C@H](NC(=O)[C@H](Cc1ccccc1)NC(=O)[C@H](Cc1c[nH]cn1)NC(=O)CNC(=O)[C@@H](NC(=O)[C@H](C)NC(=O)[C@H](Cc1c[nH]c2ccccc12)NC(=O)[C@H](CC(C)C)NC(=O)[C@@H]1CCC(=O)N1)[C@@H](C)O)C(N)=O` gave an EC50 of 0.09 ± 0.03 nM (NMBR; inositol phosphate generation, agonist; BALB/3T3 expressing human NMBR; 45 min, 37 °C; baseline: 1 µM neuromedin B).
`O=P(O)(O)O[C@@H]1[C@@H](O)[C@H](O)[C@H](O)[C@H](O)[C@H]1OP(=O)(O)O` gave an EC50 of 5010 nM (Itpr1 (Rattus norvegicus, UniProt P29994); calcium signal, agonist).
For `O=C1NC(=O)C(Cc2ccc(Oc3ccc(F)cc3)cc2)S1` (centres unmarked), the EC50 was 1590 nM (FFAR1; calcium signal, agonist, fluorescence).
The EC50 of `COc1ccc(-c2cc(C(F)(F)F)nc(S(=O)(=O)CCCC(=O)Nc3ccccc3F)n2)cc1OC` is reported as 24000 nM (SCTR; cAMP, agonist).
The EC50 of `CCCCCCCC/C=C\CCCCCCCC(=O)O[C@H]1C=CCO[C@@H]1COP(=O)(O)S` (some centres unmarked) is reported as 270 nM (LPAR2 (Homo sapiens, UniProt Q9HBW0); G protein activation, agonist).
`O[C@@H]1Cc2ccccc2[C@H]1NCc1cn2ccc(Br)cc2n1` gave an EC50 of 22100 nM (DRD4 (Homo sapiens, UniProt P21917); cAMP, agonist).
For `COc1ccc(-c2cc(C(F)(F)F)nc(NCc3ccc(F)cc3)n2)cc1OC`, the EC50 was 28000 nM (SCTR; cAMP, agonist).
The EC50 of `O=C(c1ccc(-c2ccc(Cl)cc2)o1)N1CCOc2cc(Cl)ccc21` is reported as 6000 nM (Nuclear receptor subfamily 4 group A member 2, ligand binding domain (Homo sapiens, UniProt P43354); reporter gene, agonist; HEK293T, Gal4-Nurr1 hybrid).
With `COc1ccc(-c2cc(C(F)(F)F)nc(NCc3cccnc3)n2)cc1OC` the EC50 was 23000 ± 11000 nM (SCTR; increase of tracer binding, TR-FRET; HEK293 membranes; with: Fluo-Sec 6 nM).
With `Cc1sc2cc(Cl)ccc2c1-c1ccc(N2CCO[C@H](CNC3CCC3)C2)c(C(=O)O)c1` the EC50 was 393 nM (Kcnn4 (Rattus norvegicus, UniProt Q9QYW1); channel activity, activator).
`CCCC[C@H](NC(=O)[C@H](Cc1ccccc1)NC(=O)[C@H](Cc1c[nH]cn1)NC(=O)CCNC(=O)[C@@H](NC(=O)[C@H](C)NC(=O)[C@H](Cc1c[nH]c2ccccc12)NC(=O)[C@H](CCC(N)=O)NC(=O)[C@H](N)Cc1ccccc1)C(C)C)C(N)=O` has an EC50 of 1.2 ± 0.03 nM (NMBR; inositol phosphate generation, agonist, [3H]inositol phosphate; NCI-H1299 cells expressing human NMBR; 45 min, 37 °C, with: NMB 1 µM; baseline: NMB).
The EC50 of `COc1ccc(-c2cc(C(F)(F)F)nc(SCC(=O)N(C)c3ccccc3)n2)cc1` is reported as 2500 nM and 2400 nM (SCTR; increase of tracer binding, TR-FRET; HEK293 membranes; with: Fluo-Sec 6 nM).

Repeated from above:
For `COc1ccc(-c2cc(C(F)(F)F)nc(NCc3ccc(F)cc3)n2)cc1OC`, the EC50 was 28000 nM (SCTR; cAMP, agonist).
